# Earlier results that unrelated publications cite.
# Protocols differ between the studies behind these lines. Numbers after ± are the reported error.
# Chain of UniProt Q8IYT8 (whole entry, looked up): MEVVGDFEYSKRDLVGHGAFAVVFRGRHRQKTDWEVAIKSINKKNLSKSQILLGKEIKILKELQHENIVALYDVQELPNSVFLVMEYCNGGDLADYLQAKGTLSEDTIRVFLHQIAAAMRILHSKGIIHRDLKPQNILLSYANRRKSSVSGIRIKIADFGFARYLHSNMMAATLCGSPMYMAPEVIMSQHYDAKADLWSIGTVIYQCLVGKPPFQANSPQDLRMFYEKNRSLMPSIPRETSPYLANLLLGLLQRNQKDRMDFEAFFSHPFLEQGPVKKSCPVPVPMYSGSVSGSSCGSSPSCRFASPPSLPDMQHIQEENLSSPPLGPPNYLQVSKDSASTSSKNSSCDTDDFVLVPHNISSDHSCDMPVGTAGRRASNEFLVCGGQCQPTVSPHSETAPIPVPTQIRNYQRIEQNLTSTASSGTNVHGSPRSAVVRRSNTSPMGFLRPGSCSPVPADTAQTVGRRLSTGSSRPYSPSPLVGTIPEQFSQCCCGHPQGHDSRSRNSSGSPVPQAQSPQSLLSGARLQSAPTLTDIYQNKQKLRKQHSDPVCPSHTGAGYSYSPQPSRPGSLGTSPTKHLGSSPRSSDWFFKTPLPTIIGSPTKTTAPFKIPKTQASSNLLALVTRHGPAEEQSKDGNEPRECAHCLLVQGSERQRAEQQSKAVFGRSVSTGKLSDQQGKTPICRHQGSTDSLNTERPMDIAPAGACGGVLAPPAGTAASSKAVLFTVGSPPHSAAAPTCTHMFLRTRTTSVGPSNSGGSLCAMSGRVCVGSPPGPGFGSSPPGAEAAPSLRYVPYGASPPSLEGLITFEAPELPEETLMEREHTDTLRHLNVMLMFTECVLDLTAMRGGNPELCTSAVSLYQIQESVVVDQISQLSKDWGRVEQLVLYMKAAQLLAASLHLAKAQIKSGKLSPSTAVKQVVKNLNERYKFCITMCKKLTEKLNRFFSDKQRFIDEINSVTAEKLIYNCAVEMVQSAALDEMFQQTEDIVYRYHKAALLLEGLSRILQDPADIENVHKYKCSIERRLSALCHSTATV
SMILES,target or system,assay,test system,setting,scale,quantity,result
CC(C)c1nc(N(C)S(C)(=O)=O)nc(-c2ccc(F)cc2)c1/C=C/[C@@H](O)C[C@@H](O)CC(=O)O,,BCRP substrate,"human, plasma","dose not given, together with: without pirtobrutinib",,AUC(0-inf),88.2 ng·h/mL
COc1cc2c(Oc3ccc4[nH]c(C)cc4c3F)ccnc2cc1OCC1(N)CC1,,,human,10 mg single dose,,AUC(0-inf),562 ± 328 ng·h/mL
CCOC(=O)C1=C(COCCN)NC(C)=C(C(=O)OC)C1c1ccccc1Cl (centres unmarked),,item: tacrolimus,human CYP3A5 non-expressors,"dose not given, together with: tacrolimus",,AUC(0-inf),no effect
CC(C)[C@H](C(=O)Nc1ccc(C(=O)NO)cc1)c1ccccc1,,,human subjects,"oral, 20 mg",,AUC(0-inf),4.4 µM·h
COCCc1ccc(OCC(O)CNC(C)C)cc1 (centres unmarked),,,human,"400 mg single dose, fasted",,AUC(0-inf),2140 ng·h/mL
Cc1nsc(-c2nnc3n2CCN(C(=O)c2ccc(F)cc2)[C@@H]3C)n1,,,human,"oral, 45 mg, single dose, fed",,AUC(0-inf),2760 ng·h/mL
C[C@@H](Oc1ccc(S(C)(=O)=O)cc1C(=O)N1C[C@@H]2C[C@]2(c2cc(C(F)(F)F)on2)C1)C(F)(F)F,,,human,"oral, 5 mg, solution, fasted, single dose",,AUC(0-inf),2.02 µM·h
CNC(=O)c1c(C)oc2cc(Oc3ncnc4cc(OC)c(OC)cc34)ccc12,,,"healthy human subjects, plasma","5 mg, single dose",,AUC(0-inf),5960 ng·h/mL
C#C[C@]1(O)CC[C@H]2[C@@H]3CCC4=CC(=NO)CC[C@@H]4[C@H]3CC[C@@]21CC (mixture of isomers),,,human,"0.18 mg norgestimate single dose, fed",,AUC(0-inf),9.72 ng·h/mL
C[C@H]1CO[C@@H]2Cn3cc(C(=O)NCc4ccc(F)cc4F)c(=O)c(O)c3C(=O)N12,,,human,"oral tablet, two 5 mg tablets, geometric mean fed",,AUC(0-inf),51600 ng·h/mL
Nc1cc(C(F)(F)F)c(-c2nc(N3CCOCC3)nc(N3CCOCC3)n2)cn1,"ULK2 (Homo sapiens, UniProt Q8IYT8)",enzyme activity,,10 µM,relative to: untreated,remaining activity,91%
Cc1ccccc1CN1C(=O)C2=C(CCN(Cc3ccccc3)C2)N2CCN=C12,,,human,"oral, 625 mg, high-fat meal, single dose",,AUC(0-inf),18800 ng·h/mL
Cc1cc(C)c(CNC(=O)c2cc(Cl)c3c(c2C)O[C@@](C)([C@H]2CC[C@H](N(C)C)CC2)O3)c(=O)[nH]1,,,human,100 mg,,AUC(0-inf),5870 ng·h/mL
CNCc1cc(-c2ccccc2F)n(S(=O)(=O)c2cccnc2)c1,,,human,"10 mg, multiple dose",,AUC(0-inf),96.8 ng·h/mL

# Repeated from above:
SMILES,target or system,assay,test system,setting,scale,quantity,result
C[C@@H](Oc1ccc(S(C)(=O)=O)cc1C(=O)N1C[C@@H]2C[C@]2(c2cc(C(F)(F)F)on2)C1)C(F)(F)F,,,human,"oral, 5 mg, solution, fasted, single dose",,AUC(0-inf),2.02 µM·h
